Experimental data of several laboratories.
Every numbered part comes from another study and shows a few of its results, in no order. Substitutions count along the parent as printed.

Block 1
Target: Prothrombin, mature alpha-thrombin (F2, Homo sapiens, UniProt P00734)
Method: aptamer microarray, sandwich
Molecule type: DNA with 2'F-ANA
Medium: in vitro
Concentration: 200 nM
Notes: whole 15-mer aptamer, many near background
Added: Cy3 exosite-II aptamer, 400 nM
Direction: higher = stronger binding
Oligonucleotide: GGTTGGTGTGGTTGG
Under “mean fluorescence intensity”, `2'F-ANA at 1 3 4 5 8 10 11 12 13` is recorded as 70.1 a.u.
`2'F-ANA at 2 3 6 8 9 11`: “mean fluorescence intensity” 804 a.u.
For `2'F-ANA at 2 4 6 7 8 9 10 11 14`, “mean fluorescence intensity” read 61.4 a.u.
Under “mean fluorescence intensity”, `2'F-ANA at 2 5 8 13 15` is recorded as 57.3 a.u.
`2'F-ANA at 1 4 6 7 11 12 13 14 15` — result for “mean fluorescence intensity”: 58.2 a.u.
For `2'F-ANA at 1 2 3 4 8 9 10 12 13`, “mean fluorescence intensity” read 62.7 a.u.
`2'F-ANA at 1 2 3 4 5 7 8 11 13 15`: “mean fluorescence intensity” 72 a.u.
Under “mean fluorescence intensity”, `2'F-ANA at 2 3 8 12 15` is recorded as 1130 a.u.

Block 2
Target: CRIPT, C-terminal peptide
Method: DHFR complementation, deep sequencing
Medium: yeast
Notes: single substitutions, model-inferred values
Reference: wild type
Direction: higher = weaker binding
Starting sequence: ERBIN, PDZ domain 1 (human); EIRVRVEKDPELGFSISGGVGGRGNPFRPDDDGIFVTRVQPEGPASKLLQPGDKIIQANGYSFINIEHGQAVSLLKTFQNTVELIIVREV; partner TKNYKQTSV
For `V72I`, “binding free energy change” read 1.4 kcal/mol.
Under “binding free energy change”, `K76D` is recorded as 1.24 kcal/mol.
Under “binding free energy change”, `G13E` is recorded as 1.21 kcal/mol.
For `E7V`, “binding free energy change” read -0.0428 kcal/mol.
For `R3H`, “binding free energy change” read 0.0219 kcal/mol.
For `S73L`, “binding free energy change” read 0.0983 kcal/mol.
Under “binding free energy change”, `T77S` is recorded as -0.0971 kcal/mol.
Under “binding free energy change”, `R3W` is recorded as 0.22 kcal/mol.

Block 3
Target: Sal-like protein 4, full length isoform A (SALL4, Homo sapiens, UniProt Q9UJQ4, residues 1-1053)
Chain of UniProt Q9UJQ4 (whole entry, looked up): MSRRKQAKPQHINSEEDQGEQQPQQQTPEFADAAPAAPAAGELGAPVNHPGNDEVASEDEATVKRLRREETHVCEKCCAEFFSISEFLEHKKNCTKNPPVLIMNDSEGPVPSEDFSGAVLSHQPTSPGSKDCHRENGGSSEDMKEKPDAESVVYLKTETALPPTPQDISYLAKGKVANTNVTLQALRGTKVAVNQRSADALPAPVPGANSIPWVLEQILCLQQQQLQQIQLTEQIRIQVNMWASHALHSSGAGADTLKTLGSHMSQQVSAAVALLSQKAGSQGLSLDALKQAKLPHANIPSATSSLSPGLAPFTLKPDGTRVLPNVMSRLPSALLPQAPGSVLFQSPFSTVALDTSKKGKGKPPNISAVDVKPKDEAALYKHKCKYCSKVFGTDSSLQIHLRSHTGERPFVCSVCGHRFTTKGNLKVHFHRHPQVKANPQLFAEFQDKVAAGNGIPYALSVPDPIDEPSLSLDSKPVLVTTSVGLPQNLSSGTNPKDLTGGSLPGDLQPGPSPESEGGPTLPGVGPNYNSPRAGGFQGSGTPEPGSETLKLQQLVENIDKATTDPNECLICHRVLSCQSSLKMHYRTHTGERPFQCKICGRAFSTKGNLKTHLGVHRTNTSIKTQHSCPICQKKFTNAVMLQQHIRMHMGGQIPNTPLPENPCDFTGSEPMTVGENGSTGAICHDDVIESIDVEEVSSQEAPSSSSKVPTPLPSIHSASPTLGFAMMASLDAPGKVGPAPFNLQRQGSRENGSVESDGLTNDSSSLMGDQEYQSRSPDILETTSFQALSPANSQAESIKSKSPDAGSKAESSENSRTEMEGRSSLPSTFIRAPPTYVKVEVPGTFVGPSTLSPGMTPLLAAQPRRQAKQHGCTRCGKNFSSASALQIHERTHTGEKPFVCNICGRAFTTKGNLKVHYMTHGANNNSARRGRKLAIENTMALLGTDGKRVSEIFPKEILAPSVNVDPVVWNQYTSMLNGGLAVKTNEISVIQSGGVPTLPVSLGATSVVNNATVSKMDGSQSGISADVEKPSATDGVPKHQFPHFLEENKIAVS
Method: universal PBM
Molecule type: double-stranded DNA, one strand shown
Medium: in vitro
Concentration: 600 nM
Notes: 8-mer, flanks averaged, mean of replicates
Direction: higher = stronger binding
For `CAGTCGAG`, the E-score was -0.163.
The E-score of `GGTAGGGA` is reported as -0.172.
The E-score of `GCAACCCA` is reported as -0.0943.
`GACTACGA` has an E-score of -0.0743.
With `CAGTATCC` the E-score was -0.0877.
The E-score of `ATCGACTA` is reported as 0.0743.
The E-score of `ATCGTAAG` is reported as 0.0879.
`CTTCACCC` gave an E-score of -0.0177.

Single results of other studies
Starting sequence: viral docking peptide; KGVKRKLFAEDSS
`K6L` — result for “normalised enrichment score”: 0.0706 (CCND2, cyclin fold, Cln2 fusion (human); yeast growth competition, sequencing; yeast; weak parent motif; reference: not given, higher = stronger binding).
